Results of several laboratories.
Every numbered part comes from another study and shows a few of its results, in no order.

Set 1
Target: Histone acetyltransferase KAT6A, both winged helices, GST fusion (KAT6A, Homo sapiens, UniProt Q92794, residues 1-181)
Method: protein binding microarray
Molecule type: double-stranded DNA, one strand shown
Sample: in vitro
Concentration: not given
Notes: 8-mer, flanks averaged, mean of 2 arrays, mostly near background
Baseline: not given
Reading: higher = stronger binding
Quantity: E-score
Construct (chain): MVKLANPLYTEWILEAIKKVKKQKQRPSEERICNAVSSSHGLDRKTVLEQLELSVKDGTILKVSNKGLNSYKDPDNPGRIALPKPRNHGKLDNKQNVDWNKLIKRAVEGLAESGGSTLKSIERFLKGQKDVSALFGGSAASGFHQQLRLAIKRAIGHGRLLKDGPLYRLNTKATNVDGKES
CATTGCCG: 0.224
ACCAGAAT: -0.0603
ATGTATGC: 0.103
AACGTGCC: 0.0498
CTCACAAA: 0.0031
AGAGCGGC: 0.243
AAACGTGG: -0.226
GTGCCAGA: -0.111
CCTGTTGC: -0.0752
CTACGGCC: 0.164
CAGATAAA: -0.05
ACAGCGCG: 0.34
AAGTATCA: -0.188
GGCCCCCC: -0.0639
AACCCCTC: -0.178
ACCCCGGA: -0.00413
GCGGATGA: 0.128
ACACTTGG: -0.189
AATTGCAG: -0.083

Set 2
Target: RING finger protein unkempt homolog, zinc fingers 1-6, GST-SBP tag (UNK, Homo sapiens, UniProt Q9C0B0, residues 30-357)
Method: RNA Bind-n-Seq
Molecule type: RNA
Sample: in vitro
Concentration: not given
Notes: RNA with constant flanks, human and mouse sites, ends assumed
Baseline: input RNA pool
Reading: higher = stronger binding
Quantity: bound/input enrichment
Constant ends, left off below: GGGAGUUCUACAGUCCGACGAUC … CAACAGAGGAUUGAGCAUCA
Construct (chain): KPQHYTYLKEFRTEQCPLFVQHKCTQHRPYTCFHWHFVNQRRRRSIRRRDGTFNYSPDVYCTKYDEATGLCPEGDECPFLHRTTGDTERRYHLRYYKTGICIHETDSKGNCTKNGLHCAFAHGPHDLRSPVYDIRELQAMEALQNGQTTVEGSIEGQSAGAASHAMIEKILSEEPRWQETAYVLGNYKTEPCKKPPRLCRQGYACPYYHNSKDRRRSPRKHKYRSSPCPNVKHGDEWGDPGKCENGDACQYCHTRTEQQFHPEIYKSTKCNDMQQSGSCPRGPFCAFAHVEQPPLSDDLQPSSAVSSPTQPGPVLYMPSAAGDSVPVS
CUGUUGCCCAAACCACAGAUGCGUGGUCUUCUGGCCAAGCGUCUGCGGGUUCAUAUUGCUGGCGCAUUCAUUGUGGCCCUGGGAGUUGCCGCUGCCUAUAAGUUUGGCGUGGCUGAGCCA: 0.199 ratio
AUGUCUGAGGGCUGUUUUUCAUUUGGCAUCUUGAUCACUGCAGAAGUGAAUUCACCAUGGCUGGAAUCUUACCUAUCUCAGGGUAUGGCCUCUCUUGUUCAAGCUUUCUACCUGACUGCU: 0.204 ratio
AGAGAAAAAAUUGAUUUUCAGCAUGCUCAUGGGUUACAAGAAUUGGAAUUUAUUCGAGGACAUUCUGAUACAGAAGCAGCAAGACUGUGUGUGGACCAGUGGCUAAAAAUGCCAGGACUC: 0.172 ratio
AGAAUGUCCCACUUGCUGUCUCUUAGAGGCUGAGCUUCAUUUCUAUGAGCAAAGAGCUCAUUUAGCAAUGUAGUUAUUUCAGUAUUUAUUUCUAUUAUGGAAUCCCUGGGGUUCAGAAUG: 2.08 ratio
CAAGUCUACAAAAGCUCUUCAGAGAAGUAAGAAUAAUGAAGAUUUUAAAUCACCCAAACAUAGUGAAGUUGUUCGAAGUCAUUGAAACGGAAAAAACUCUCUACUUAAUCAUGGAAUAUG: 0.368 ratio
GCCUUAUUUGCCACGGAGACCUUUGCUAUGGGAAUUAACAUGCCAGCUAGAACUGUUUUAUUUACAAAUGCCCGCAAAUUUGAUGGGAAGGAUUUCCGAUGGAUUUCUUCUGGUGAAUAC: 0.543 ratio
AGCUUCUACCGAACCAGAACCUUGCAGGCACUGAGUAAUGAGAAGAAAGCCAAGAAGGUACGUUUCUACCGCAAUGGGGACCGCUACUUCAAGGGGAUUGUGUACGCUGUGUCCUCUGAC: 0.123 ratio
UCAAUAACCUUUUCAGAUGAAAACGAUGAUCAGGAUUUUGAAUUAUGGGAUGAUGUAGGAUUAAACAUUCCAAAACCUCCAGACUUAUUGCAACUCUACCGGGAUUUUGGAAAUCAUCAA: 0.0768 ratio
UCACUUAAUUUGUAUAAAUGUUAUGAGUGGAGAGACAUGUACAUGUUAAAAGCAUGUUGCAUUAUAUAUUCAUUUUUUAAACUCUAUAAAUGUUAAGAAUAAUAUAAUUGCAGAAAUAUU: 0.244 ratio
UUACAGAAACCCAGUGUGGCUCAUUUUGGAUCUGAAAAAUCAAACCUGUACAAGUUUACUGCUAGUGCCUCACAUACAGAGAGAAAACUGAAACAGGCAAUAAACUAUUCAAAAAGUUUA: 0.157 ratio
CAAACGUUGUUGGGAAUAAUUGUGAGGAUGAAGUUUUUGCUGCUGCAGCAGAAGUACCUAGAAUACCUGGAGGAUGGCAAGGUCCUGGAGGCACUUCAAGUUCUACGCUGUGAAUUGACG: 0.215 ratio

Set 3
Target: RNA binding protein fox-1 homolog 2, RRM domain, GST-SBP tag (RBFOX2, Homo sapiens, UniProt O43251-10, residues 100-194)
Method: RNA Bind-n-Seq
Molecule type: RNA
Sample: in vitro
Concentration: 365 nM
Notes: natural RNA segment, single round, ends assumed
Baseline: no-protein control
Reading: higher = stronger binding
Quantity: RBNS enrichment (R)
Constant ends, left off below: GGGAGUUCUACAGUCCGACGAUC … UGGAAUUCUCGGGUGCCAA
Residues (chain): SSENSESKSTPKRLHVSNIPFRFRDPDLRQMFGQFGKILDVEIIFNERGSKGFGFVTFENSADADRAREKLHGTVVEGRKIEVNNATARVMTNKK
AUUAAUGACUUAUCCAACCCUGUUUUUCUAAAAAGAAAGGUAACAGGCAAAAAGUGUGUUGCCGAGGCCUCUUGGCUCUUGAGUAGCAGAGCUGAGACUGGUUCCCUGAU: 0.294
AUGGUCAAGCUUGUAAAUAACCUUUUUUACAUUUUAAUCUUUUCCAUUAAUUAAGAGGUUGAAAAGAAGUACAGUGUAAGAAAACCCAGCAUUUUAAUUAUUUGCAAAUU: 0.525
UCCCUUACCUGCCUACCACUAGUGUCACGCAUAGUGUCACAGUGCUUCUGAUACACUCUCAUCUUGAUCAUAUUUUAAAUCAAGCGUUUUCCUGUAGCUGUCAAGUGGUC: 0.368
GGAGGGUUGUGGUUCCUGUCACCUGGGCUGAGGAGCCAGGAAGGCCUAAGCACUUCACUCACACACGCGAGUGGGCGAGUGCGUGUGCCUGUGCACACUUCACACACUGG: 0.205
GGCCCUGCCCAACUUCAGGCAGAACAGGGAGGCCCAGAGAUUACAGAUCCCCUCCUGUAAGUGGCCAGGCAUUCUCUCCCUGCCCUCUCUGGCCUCUGGGGUCAUACUCA: 0.222
UUUCUUCCAAAGAGGCAAAAGCAGCUAGACUCGCUUACAGCACAUGCUUCGCUCCAUGGUAUGGGUGGACACCUACACUUGUCAGUAGCAGUCUUAAACUCCUCACUGCC: 0.407
AGUGUUUAAUUUUGUUGUCCUUCUUAAUGUUCUCAGUCAAAUAAAUGGGUGGUUUCAUCUGUUUGGGACAUGUGGGUGUCUUCUUUUUGGGAAGCACAGUCUUUGCAACC: 0.372
CUGUGGGUACUGGUCUUGGGUUCUAGUCAUAAGGGGUUCCUUAUAAGGAGCAGGCGGAGGGGAGUACACUUUCAUGUGAUUUAAUUUUGAUCCUGCCCUCUCCAGCUGCU: 0.282
GACCGAGGCCUGGUCACAGCAGCGAGCAUCCAGGGUUUGCAGGGACGAUGUUACAGACUCUGUUUUCUGCCUGGCGUUUCACUUGUGUCUGCUCCUAGCCUGUGCUCUGC: 0.427
AUCUAAUCUGAUCCUUCUUUACGUGUCUAAAUCAAGACUGUAUCCACAUUUUACCACGCGGCCAUACUUGCAGAAUGCAGACCCUAGUGGGCUGUACUGUAUGCACUUUG: 0.288
UGAAUAGAGUAAUAGAUAUUACUGGAAACUGAUUUGUUUUUUUUUUCCUAUUAUACUCUGCUUUAUUGAAAAAGUAAAGCAUUUAAAAUUGUGCUCCAGAAAUUCAGAUG: 0.381
AAGCCCUAAAAUUUCAAACACUGUUUGAAAGAAGAGGUGGGGGCCGGGUGCCGUGGCUCAUGCCUGUCAUCCCAGCAUUUGGGAGGCUGAGGCAGGCAGAUCACCUGAGG: 0.295

Set 4
Target: Sal-like protein 4, full length isoform A (SALL4, Homo sapiens, UniProt Q9UJQ4, residues 1-1053)
Chain of UniProt Q9UJQ4 (whole entry, looked up): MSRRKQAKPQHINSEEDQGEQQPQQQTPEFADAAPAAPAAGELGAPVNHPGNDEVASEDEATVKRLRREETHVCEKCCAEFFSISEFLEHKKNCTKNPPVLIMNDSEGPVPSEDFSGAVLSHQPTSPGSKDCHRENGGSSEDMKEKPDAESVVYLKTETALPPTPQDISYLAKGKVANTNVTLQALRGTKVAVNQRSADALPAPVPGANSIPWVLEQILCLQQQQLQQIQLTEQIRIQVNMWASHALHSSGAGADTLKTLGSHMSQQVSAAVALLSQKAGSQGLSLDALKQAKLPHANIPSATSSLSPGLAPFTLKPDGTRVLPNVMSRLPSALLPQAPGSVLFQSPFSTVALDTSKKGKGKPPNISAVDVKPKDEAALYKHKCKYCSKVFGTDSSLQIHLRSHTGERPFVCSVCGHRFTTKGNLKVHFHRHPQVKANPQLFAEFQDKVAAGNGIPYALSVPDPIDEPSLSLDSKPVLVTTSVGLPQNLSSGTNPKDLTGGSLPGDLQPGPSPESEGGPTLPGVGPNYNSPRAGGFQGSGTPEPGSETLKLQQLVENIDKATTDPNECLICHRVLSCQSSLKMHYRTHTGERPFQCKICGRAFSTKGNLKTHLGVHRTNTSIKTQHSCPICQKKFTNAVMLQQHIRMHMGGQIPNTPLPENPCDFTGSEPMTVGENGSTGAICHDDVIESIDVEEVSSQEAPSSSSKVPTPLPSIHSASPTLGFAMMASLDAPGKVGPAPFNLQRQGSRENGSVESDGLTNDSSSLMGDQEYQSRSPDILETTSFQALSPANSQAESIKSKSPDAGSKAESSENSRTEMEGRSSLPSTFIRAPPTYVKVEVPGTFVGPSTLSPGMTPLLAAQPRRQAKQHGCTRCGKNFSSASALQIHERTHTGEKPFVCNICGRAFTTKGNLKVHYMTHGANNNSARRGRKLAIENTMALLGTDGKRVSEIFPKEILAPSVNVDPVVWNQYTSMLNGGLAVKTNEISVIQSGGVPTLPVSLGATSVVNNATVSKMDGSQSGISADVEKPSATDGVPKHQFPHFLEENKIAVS
Method: universal PBM
Molecule type: double-stranded DNA, one strand shown
Sample: in vitro
Concentration: 600 nM
Notes: 8-mer, flanks averaged, mean of replicates
Reading: higher = stronger binding
Quantity: E-score
CATCATCG: 0.065
AAAAGTTA: 0.261
ATAGTGCG: -0.112
ACGATAGT: 0.179
CGGATACG: -0.242
GCGCCCAA: -0.196
TCCAAGGA: -0.00565
GGCGATAA: -0.0105
TGCCCACA: -0.288
CTTATAGA: 0.257
GCCCCGCC: -0.222
GATCTTCC: -0.227
AGCCCAGC: -0.362
GGCGGCAC: -0.257
AATAGTAG: 0.247
ATAGAGAT: 0.251
AACTGCCA: -0.131
CTATACGC: -0.089
TACTCCAA: 0.0194
AGGCCGCC: -0.36
AACTCACT: -0.0411
CACCAAAG: 0.0195
ATAGGACA: -0.0273
ACGATCGA: 0.0669
CCTCGTCC: -0.216

Set 5
Target: Interferon regulatory factor 7, full length, phosphomimetic (IRF7, Homo sapiens, UniProt Q92985, residues 1-503, S471D/S472D/S475D/S476D/S477D/S483D/S484D/S487D)
Method: protein-binding microarray
Molecule type: double-stranded DNA, one strand shown
Sample: in vitro
Concentration: 2200 nM top
Notes: 60-bp whole probe
With: salmon DNA 0.4 mg/ml
Baseline: random background probes
Reading: higher = stronger binding
Quantity: fitted relative affinity
Constant ends, left off below: GCCTAGCAC … GTCTTGATTCGCTTGACGCTGCTG
Target sequence (chain): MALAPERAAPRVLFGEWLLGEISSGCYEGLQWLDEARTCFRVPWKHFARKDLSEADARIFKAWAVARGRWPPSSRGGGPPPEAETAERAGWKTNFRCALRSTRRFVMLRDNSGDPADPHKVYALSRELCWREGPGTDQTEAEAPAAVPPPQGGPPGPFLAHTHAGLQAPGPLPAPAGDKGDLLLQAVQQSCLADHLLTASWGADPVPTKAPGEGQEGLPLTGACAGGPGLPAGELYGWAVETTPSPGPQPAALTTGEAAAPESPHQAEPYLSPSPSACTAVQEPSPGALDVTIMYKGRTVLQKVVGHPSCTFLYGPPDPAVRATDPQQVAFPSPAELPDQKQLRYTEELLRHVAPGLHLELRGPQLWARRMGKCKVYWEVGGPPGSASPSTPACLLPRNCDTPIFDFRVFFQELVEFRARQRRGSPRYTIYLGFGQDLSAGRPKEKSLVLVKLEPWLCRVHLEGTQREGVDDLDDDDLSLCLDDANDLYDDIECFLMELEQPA
TCAGATTTACAAACTGTGACTGTGCTA: 0.00932 z-score
TCACCTATAGGTTTCTAACTGTGCTAG: 1.01 z-score
AAACCATCCTGTATGGATGTGTGCTAG: 0.464 z-score
GACGGTATCATTCTCCTGACGTGCTAG: 0.957 z-score
TTAGGTTCCCTTTTCCTGTAGTGCTAG: 2.8 z-score
TCAGAAATCTCTTTCCTACTGTGCTAG: 0.778 z-score
TTAGGTTCCGGTTTCCGTTAGTGCTAG: 5.35 z-score
TTAGGTTCCGGGTATCGGTTAGTGCTA: 1.45 z-score
GACGAACTGGGGTATCGATACGTGCTA: 0.292 z-score
TTAGGGATCGGGACTGGGTTAGTGCTA: -0.801 z-score
GACGGACTGCCACTGCTGACGTGCTAG: -0.358 z-score
GAAGCTTCCTCTCTGCCACTGTGCTAG: 0.728 z-score
TTAGGTCTCGGACTGGTTTAGTGCTAG: 0.00816 z-score
TGAGGTCTCGGTATCGGTTAGTGCTAG: 0.376 z-score
GACGATATCGACTTTCGGGACGTGCTA: 3.37 z-score
TGAGATTTCAGACTGGATTAGTGCTAG: -0.375 z-score
ATAGGTCTCGGTTTCGGTTAGTGCTAG: 7.35 z-score
TCATCTTTTTTGTTCCAACTGTGCTAG: 1.75 z-score
GACGATTACAGACTGGAGACGTGCTAG: -0.0848 z-score
GACGGTTTCGGTTTCGGAACGTGCTAG: 15.6 z-score
TTAGGTTTCGGTTCCTGTTAGTGCTAG: 11.5 z-score
TTAGATTTCAATATCGATTAGTGCTAG: 0.228 z-score
TTAGACCTCAGACTGGATTAGTGCTAG: -0.346 z-score
TCCATCATTGCTTTCTCTTTGTGCTAG: 5.14 z-score
GACGGTTTCGGGTTCGGGACGTGCTAG: 9.77 z-score

A few entries again (set 1):
CAGATAAA: -0.05
ACCCCGGA: -0.00413
ACCAGAAT: -0.0603
CTCACAAA: 0.0031
CTACGGCC: 0.164
AAGTATCA: -0.188
AACGTGCC: 0.0498
AATTGCAG: -0.083
GCGGATGA: 0.128
ACACTTGG: -0.189
GTGCCAGA: -0.111
AAACGTGG: -0.226
ACAGCGCG: 0.34
